Assay results gathered from unrelated publications.
Protocols differ between the studies behind these lines. Numbers after ± are the reported error.
Organism: Arabidopsis thaliana

For `CC1=CC(OC=C2C(=O)OC3c4ccccc4CC23)OC1=O` (racemic), hypocotyl length read “no effect” (Atd14-1 htl-3; concentration not given, red light).
`CC(C)Oc1cccc(NC(=O)CCCN2C(=O)c3ccccc3C2=O)c1`: “time to degradation onset” ≤ 10 min (reporter protein, item: DII-VENUS; 50 µM).
For `CN1C[C@H](c2cccc(C(F)(F)F)c2)[C@@H](C(=O)Nc2ccccc2F)C1=O`, the N-carbamoyl-aspartate level was 24.2 ± 12.2 ng/g fresh weight (seedlings; 5 µM, 24 h).
`Cc1cccc2c1N(C(=O)n1ccnn1)CC2` — result for “germination inhibition concentration”: > 30 µM (kai2 mutant; ambient temperature).
`O=C(Cc1ccc(O)c(O)c1)N(O)Cc1ccc(F)cc1`: “axillary bud outgrowth” “active” (excised Col-0 nodes; 100 µM, added: NAA 1 µM).
`O=C(O)C1(O)Oc2cc(F)ccc2N(Cc2ccccc2)C1=O` (centres unmarked): seed germination “inhibited” (Col-0; 50 µg/mL).
For `CCc1cccc2c(C(=O)COC(=O)C34CC5CC(CC(Br)(C5)C3)C4)c[nH]c12`, mRNA level read “decreased” (qRT-PCR, item: STH7; seedlings 10 days old; 20 µM, 24 h, added: (+)-GR24 1 µM; baseline: GR24 alone).
With `CCc1nc(-c2cccc(NC(=O)c3cccc(OC)c3)c2)no1` the IC50 was 19 µM (root growth; agar plates).

Excerpt of the above:
`O=C(O)C1(O)Oc2cc(F)ccc2N(Cc2ccccc2)C1=O` (centres unmarked): seed germination “inhibited” (Col-0; 50 µg/mL).
